Assay results pooled from the literature.
Protocols differ between the studies behind these lines.

Compound	observed	matrix	concentration	pH	temperature	notes	CLint
C[C@](C(=O)NC1CCC(F)(F)CC1)(c1cncnc1)N(C(=O)[C@H](F)Cl)c1ccc(OC(F)(F)F)cc1	–	mouse liver microsomes	concentration not given	pH 7.4	–	–	71.6 µL/min/mg
CN(CC(F)(F)F)C(=O)CN1CN(c2ccccc2)C2(CCN(C(=O)c3ccc4[nH]ncc4c3)CC2)C1=O	–	human liver microsomes	–	–	–	–	34 µL/min/mg protein
O=C1CC[C@H](N2Cc3cc(-c4ccn5ncc(Cl)c5n4)ccc3C2=O)C(=O)N1	–	human liver microsomes	–	–	–	0.5 mg/mL protein	2.2 µL/min/mg
C[C@H]1CN(C(=O)c2cn(-c3ccnc(N)n3)c3cc(C#CC4(O)CCCCC4)ccc23)CCN1	–	human liver microsomes	1 µM	pH 7.4	–	–	25.8 µL/min/mg
Cc1ncsc1-c1ccc([C@@H]2CCCCCCNC(=O)C[C@@H]3N=C(c4ccc(cc4)OCCCCCC(=O)N[C@@H](C(C)(C)C)C(=O)N4C[C@H](O)C[C@H]4C(=O)N2)c2c(sc(C)c2C)-n2c(C)nnc23)cc1	–	human liver microsomes	1 µM	–	37 °C	–	300 mL/min/kg
O=C(CN1CN(c2ccccc2)C2(CCN(C(=O)c3cc4cn[nH]c4cn3)CC2)C1=O)NCC(F)(F)F	–	mouse liver microsomes	–	–	–	–	85 µL/min/mg protein
CC(C)=CCc1cc(C(=O)/C=C/c2ccc(O)cc2)c(O)cc1O	phase I metabolism	dog liver microsomes	–	–	–	–	13.9 µL/min/mg
O=C(CN1CN(c2ccccc2)C2(CCN(C(=O)c3ccc4[nH]ncc4c3)CC2)C1=O)Nc1ccccn1	–	mouse liver microsomes	–	–	–	–	600 µL/min/mg protein
O=C(NC1CCC(F)(F)CC1)C(c1cncnc1)N(C(=O)C(F)Cl)c1ccc(-c2cncs2)cc1 (stereo not drawn)	–	mouse liver microsomes	concentration not given	pH 7.4	–	–	38.9 µL/min/mg

Excerpt of the above:
Compound	observed	matrix	concentration	pH	temperature	notes	CLint
C[C@](C(=O)NC1CCC(F)(F)CC1)(c1cncnc1)N(C(=O)[C@H](F)Cl)c1ccc(OC(F)(F)F)cc1	–	mouse liver microsomes	concentration not given	pH 7.4	–	–	71.6 µL/min/mg
